Measurements from different studies.
Lines come from different studies, so protocols differ. ± marks the error that the study gave.
Chain of UniProt P02730 (whole entry, looked up): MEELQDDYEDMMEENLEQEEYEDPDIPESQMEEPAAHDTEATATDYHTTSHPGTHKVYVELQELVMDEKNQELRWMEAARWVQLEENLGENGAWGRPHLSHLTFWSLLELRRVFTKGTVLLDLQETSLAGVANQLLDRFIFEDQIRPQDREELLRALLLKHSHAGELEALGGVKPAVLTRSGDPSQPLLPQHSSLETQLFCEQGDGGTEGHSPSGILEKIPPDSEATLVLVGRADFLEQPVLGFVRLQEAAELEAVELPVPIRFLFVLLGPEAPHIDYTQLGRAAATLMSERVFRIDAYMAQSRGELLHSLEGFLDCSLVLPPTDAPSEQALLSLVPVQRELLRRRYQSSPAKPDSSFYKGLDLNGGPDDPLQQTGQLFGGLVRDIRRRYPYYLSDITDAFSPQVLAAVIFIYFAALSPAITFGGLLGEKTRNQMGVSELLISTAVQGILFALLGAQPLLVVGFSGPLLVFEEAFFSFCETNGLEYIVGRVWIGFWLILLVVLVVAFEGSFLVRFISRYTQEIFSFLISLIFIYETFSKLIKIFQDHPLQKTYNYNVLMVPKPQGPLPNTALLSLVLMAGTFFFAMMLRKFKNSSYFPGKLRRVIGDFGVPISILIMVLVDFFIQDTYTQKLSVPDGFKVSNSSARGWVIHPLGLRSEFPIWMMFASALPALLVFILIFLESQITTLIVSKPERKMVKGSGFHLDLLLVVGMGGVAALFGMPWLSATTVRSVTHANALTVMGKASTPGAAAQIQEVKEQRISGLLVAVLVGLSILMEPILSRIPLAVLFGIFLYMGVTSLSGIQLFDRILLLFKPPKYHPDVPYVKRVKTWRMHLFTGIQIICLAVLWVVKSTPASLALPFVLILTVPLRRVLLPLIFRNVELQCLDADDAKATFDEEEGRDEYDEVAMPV

The Cmax of `Cc1cc(Nc2cc3ncccc3c(N[C@@H]3C[C@H]4CC[C@@H](C3)N4CCC#N)n2)n[nH]1` is reported as 1.85 ng/mL (pregnant rat, maternal plasma; oral, 30 mg/kg/day, gestation day 6).
For `[I-].[K+]`, the Kd was 630 µM (SLC4A1 (Homo sapiens, UniProt P02730); Cl- exchange, inhibitor, 36Cl flux, two-site model; erythrocytes; pH 12, both sites protonated, unbuffered point excluded).
`CCOc1ccc(NC(=S)N(CCO)Cc2cc3cc(C)cc(C)c3[nH]c2=O)cc1` has a Cmax of 5630 ng/mL (C57BL/6J mouse, plasma; intravenous, 3 mg/kg, together with: ABT 50 mg/kg oral pretreatment 2 h before).
`OCCc1ccc(O)cc1` has a Cmax of 41.8 ± 3.73 µM (male C57BL/6J mice low-fat diet, plasma; oral, 200 mg/kg, after enzymatic deconjugation).
With `Cc1ccc(NC(=O)c2ccc(CN3CCN(C)CC3)cc2)cc1Nc1nccc(-c2cncc(-c3oncc3C)c2)n1` the Cmax was 5950 ng/mL (healthy volunteers, plasma; oral, 200.0 mg once daily, day 7, 7-day dosing, mean).
`CC(=O)C=Cc1ccc(O)c(O)c1` gave a Cmax of 0.99 ± 0.12 µM (male C57BL/6J mice low-fat diet, plasma; oral, 200 mg/kg, diet 8 weeks).
`CC(=O)N[C@@H](Cc1ccccc1)C(=O)N[C@H]1CCCNC(=O)[C@H](CCCNC(=N)N)NC(=O)[C@H](Cc2c[nH]c3ccccc23)NC(=O)[C@@H](CC2CCCCC2)NC(=O)[C@@H]2CCCN2C1=O` has a Cmax of 4920 ng/mL (C57BL/6J mouse, plasma; intraperitoneal, 1 mg/kg, single dose).
`OCCc1ccc(O)c(O)c1` has a Cmax of 0.055 ± 0.013 µM (male C57BL/6J mice low-fat diet, plasma; oral, 200 mg/kg, after enzymatic deconjugation).
The IC50 of `Sc1nc2ccccc2s1` is reported as 131 µM (cysteine peptide Ac-RFAACAA-COOH; peptide depletion, DPRA RapidFire-MS/MS; 24 h, pH 7.5, room temperature, together with: 5.0 µM cysteine peptide).
With `CCCC[C@H](NC(C)=O)C(=O)N[C@H]1CCC(=O)NC[C@@H](C(=O)N[C@@H](Cc2c[nH]c3ccccc23)C(N)=O)NC(=O)[C@H](CCCNC(=N)N)NC(=O)[C@@H](Cc2ccccc2)NC(=O)[C@H](Cc2c[nH]cn2)NC1=O` the Cmax was 116 ng/mL (beagle dog, male, plasma; subcutaneous, 1.5 mg/kg daily, day 1).
`Cc1ccc(Sc2ccccc2N2CCNCC2)c(C)c1` gave a Cmax of 3.4 ng/mL (healthy women, plasma; oral, 10 mg once daily, fed, day 1).
The Cmax of `COc1cccc(-c2n[nH]c(SCc3ccccn3)n2)c1OC` is reported as 846 ng/mL (Sprague-Dawley rat, both sexes, plasma; oral, diet, 10 mg/kg/day, day 90).
With `COc1ccc(/N=C(\N)CC(O)c2cc3c(F)cc(F)cc3c3cc(C(F)(F)F)ccc23)cc1.Cl` (stereo not shown) the Cmax was 78.1 ng/mL (mouse, dried blood spot; oral, 30 mg/kg single dose).
`Cc1nc2cccc(OCC(C)(C)C(=O)NC(C)C)c2c(N)c1C(=O)O` has a Cmax of 16.2 ± 3.6 ng/mL (Sprague-Dawley rat, male, plasma; oral, 10 mg/kg, day 7).
With `O=c1c(O)c(-c2ccc(O)cc2)oc2cc(OS(=O)(=O)O)cc(O)c12` the Cmax was 0.153 ± 0.062 µM (FVB mice, male, Mrp1^−/−, plasma; oral, 10 mg/kg of kaempferol).
`CC[C@H](C)[C@@H]1NC(=O)[C@H](Cc2ccc(O)cc2)NC(=O)[C@@H](N)CSSC[C@@H](C(=O)N2CCC[C@H]2C(=O)N[C@@H](CC(C)C)C(=O)NCC(N)=O)NC(=O)[C@H](CC(N)=O)NC(=O)[C@H](CCC(N)=O)NC1=O` has a Cmax of 2.31 pg/sample (microdialysis, radioimmunoassay; knock-out male mice lacking compound, amygdala extracellular fluid; intraperitoneal, 12 µg total).
For `COC(=O)c1cccc(C(=O)OC)c1`, IC50 read “inactive” (cysteine peptide Ac-RFAACAA-COOH; peptide depletion, DPRA RapidFire-MS/MS; 24 h, pH 7.5, room temperature, together with: 5.0 µM cysteine peptide).
With `COc1cc(CCC(C)=O)ccc1O` the Cmax was 54.7 ± 1.54 µM (male C57BL/6J mice low-fat diet, plasma; oral, 200 mg/kg, diet 8 weeks).
`COc1cccc2c1C(=O)c1c(O)c3c(c(O)c1C2=O)C[C@@](O)(C(=O)CO)C[C@@H]3O[C@H]1C[C@H](N)[C@H](O)[C@H](C)O1` gave a Cmax of 189 µM (mouse, E0771 tumour-bearing, liver; intravenous, 92 µmol/kg).
